Measurements collected from several papers.
Compare with care: the assays were run in different laboratories. ± gives the spread as reported.
Organism: Plasmodium falciparum

COc1ccccc1C1Sc2ccccc2NC2=C1C(=O)c1ccccc12 (racemic) gave an EC50 of over 5000 nM (growth, [3H]hypoxanthine incorporation; 3D7).
For O=C(CNc1ccc(F)c(S(=O)(=O)N2CCOCC2)c1)Nc1ccc(F)c(Cl)c1, the EC50 was 580 nM (parasite growth; 3D7; blood stage).
The EC50 of COC(=O)c1[nH]c(C(=O)OC)c2c1-c1c[nH]c3ccc(Cl)c(c13)C21CN(C)c2ccc(Cl)cc21 (racemic) is reported as 3700 nM (parasite growth, SYBR Green; 3D7; 72 h, blood stage).
For COC[C@H](NC(=O)[C@H](CCc1ccccc1)NC(=O)CN1CCOCC1)C(=O)N[C@H](/C=C/S(C)(=O)=O)Cc1cccs1, the EC50 was 8 ± 2 nM (flow cytometry YOYO-1; W2 ring stage; 72 h no washout).
COC(=O)c1[nH]c(C(=O)OC)c2c1c1c3cc(Cl)ccc3[nH]c1c1[nH]c3ccc(Cl)cc3c12 gave an EC50 of 790 nM (parasite growth, SYBR Green; 3D7; 72 h, blood stage).
CC(C)=CCC/C(C)=C/Cc1c(CCC(=O)c2ccc(O)cc2O)ccc(O)c1O has an EC50 of 10400 nM (parasite growth, PfLDH; 3D7 wild type).
With COC(=O)c1[nH]c(C(=O)OC)c2c1-c1c[nH]c3ccc(Cl)c(c13)[C@@]21C=Nc2ccc(Cl)cc21 the EC50 was 3900 nM (parasite growth, SYBR Green; 3D7; 72 h, blood stage).
The EC50 of Cc1ccc(NC(C)(C)C(=O)Nc2ccc(F)c(Cl)c2)cc1S(=O)(=O)N1CC2(COC2)C1 is reported as 120 nM (parasite growth; 3D7; blood stage).
COc1cc(C(=O)N(C)C)ccc1-c1cc2nccc(-c3ccc4cnccc4c3)c2o1 gave an EC50 of 330 nM (parasite growth; 3D7; blood stage).
The EC50 of Cc1c(-c2ccc(Cc3ccc(OC(F)(F)F)cc3)cc2)[nH]c2cccc(F)c2c1=O is reported as 16 nM (parasite growth, SYBR Green; 3D7; blood stage).
For Cc1ccc(NCC(=O)Nc2cccc(Cl)c2)cc1S(=O)(=O)N1CCOCC1, the EC50 was 190 nM (parasite growth; 3D7; blood stage).
Cc1cc(N2CC[C@@](C#N)(C3CC3)C2=O)cc(NC(=O)Cc2ccccc2)n1 has an EC50 of 48.7 nM (asexual blood-stage growth, SYBR Green I; 3D7; 48 h).
COc1cc(C(=O)N2CCN(C)CC2)ccc1-c1cc2nccc(-c3ccc4ccncc4c3)c2o1 gave an EC50 of 890 nM (parasite growth; 3D7; blood stage).
With Cc1ccc(CNC(=O)[C@@H]2Cc3cccc(c3)Oc3cccc(c3)C[C@H](N)C(=O)N[C@@H](CCc3ccccc3)C(=O)N2)cc1 the EC50 was 1870 nM (parasite growth; 1 h pulse, ring stage).
With CNC(=O)c1c(F)cccc1Nc1nc(Nc2cc3c(cc2OC)CCN3C(=O)CN(C)C)nc2[nH]ccc12 the EC50 was 1580 nM (parasite growth; W2; blood stage).
The EC50 of Cc1ccc(CNC(=O)[C@@H](NC(=O)[C@H](CCc2ccccc2)NC(=O)[C@@H](NC(=O)c2cnc(C)cn2)C(C)(C)C)C(C)C)cc1 is reported as 64.4 nM (parasite growth; D10; 72 h, blood stage).
With O=C1C2=C(Nc3ccccc3SC2c2ccsc2)c2ccccc21 (racemic) the EC50 was 44 nM (growth, [3H]hypoxanthine incorporation; 3D7).
CC[C@@H](/C=C/S(C)(=O)=O)NC(=O)[C@H](COC)NC(=O)[C@H](CCc1ccccc1)NC(=O)CN1CCOCC1 has an EC50 of 21 ± 5 nM (flow cytometry YOYO-1; W2 ring stage; 72 h no washout).
For O=c1cc[s+]([O-])c2ccccc12 (single isomer, unassigned; (+)), the EC50 was 115000 nM (parasite growth; 3D7; 72 h, blood stage).
With Cc1ccc(CNC(=O)[C@H](CCc2ccccc2)NC(=O)[C@H](CCc2ccccc2)NC(=O)[C@@H](N)Cc2ccncc2)cc1 the EC50 was 357 nM (parasite growth; D10; 72 h, blood stage).
Cc1ccc(NCC(=O)Nc2ccc(F)c(Cl)c2)cc1S(=O)(=O)N1CCCCC1 has an EC50 of 220 nM (parasite growth; 3D7; blood stage).
COC[C@H](NC(=O)[C@H](CCc1ccccc1)NC(=O)c1cnc(C)s1)C(=O)N[C@H](/C=C/S(C)(=O)=O)Cc1cccs1 gave an EC50 of 3 ± 0.7 nM (flow cytometry YOYO-1; W2 ring stage; 72 h no washout).
For Cc1ccc(NCC(=O)Nc2cnccn2)cc1S(=O)(=O)N1CCOCC1, the EC50 was over 50000 nM (parasite growth; 3D7; blood stage).
OC(CN1CCC2(CC1)CC(O)c1ccc3ccccc3c1O2)c1ccc(F)c(F)c1 (centres unmarked) has an EC50 of 390 nM (3D7 chloroquine-sensitive; 72 h).
For Cc1ccc(NCC(=O)Nc2ccc(F)c(Cl)c2)cc1S(=O)(=O)N(C)C, the EC50 was 690 nM (parasite growth; 3D7; blood stage).
COc1cncc(-c2cc(F)cc(CNC(=O)c3cc(N4CC[C@@](C#N)(C5CC5)C4=O)cc(C)n3)c2)c1 gave an EC50 of 284 nM (asexual blood-stage growth, SYBR Green I; 3D7; 48 h).
CC(C)C[C@@H](/C=C/S(C)(=O)=O)NC(=O)[C@H](CC(C)C)NC(=O)[C@H](Cc1ccc2ccccc2c1)NC(=O)CN1CCOCC1 has an EC50 of 90 ± 16 nM (flow cytometry YOYO-1; W2 ring stage; 72 h no washout).
The EC50 of COc1ccc(S(=O)(=O)NCc2c[nH]nc2-c2cccs2)cc1 is reported as 230 nM (oocyst intensity, standard membrane feeding; NF54-HGL reporter, Anopheles stephensi).
The EC50 of Cc1cc(N2CC[C@@](C#N)(C3(C)CC3)C2=O)cc(C(=O)NCc2cc(F)cc(-c3cnn(C)c3)c2)n1 is reported as about 1.6 nM (asexual blood-stage growth, SYBR Green I; 3D7; 48 h).
The EC50 of CCCCCCCC1=CC(=O)c2ccccc2S1(=O)=O is reported as 53700 nM (parasite growth; 3D7; 72 h, blood stage).
With COc1cc2[nH]c(C)c(-c3ccc(Oc4ccc(OC(F)(F)F)cc4)cc3)c(=O)c2cc1Cl the EC50 was 21 nM (parasite growth, 3H-hypoxanthine incorporation; Dd2).
The EC50 of N#Cc1ccc(C2Sc3ccccc3NC3=C2C(=O)c2ccccc23)cc1 (racemic) is reported as 790 nM (growth, [3H]hypoxanthine incorporation; 3D7).
O=C1C(Cc2ccc(C(F)(F)F)cc2)=CS(=O)(=O)c2ccccc21 gave an EC50 of 33900 nM (parasite growth; 3D7; 72 h, blood stage).
Cc1ccc(NCC(=O)N2CCOCC2)cc1S(=O)(=O)N1CCOCC1 has an EC50 of over 50000 nM (parasite growth; 3D7; blood stage).
For COc1ccc(C2Sc3ccccc3NC3=C2C(=O)c2ccccc23)cc1 (racemic), the EC50 was 2000 nM (growth, [3H]hypoxanthine incorporation; 3D7).
For Cc1ccc(CNC(=O)[C@H](CCc2ccccc2)NC(=O)[C@@H](N)CCc2ccccc2)cc1, the EC50 was 7760 nM (parasite growth; D10; 72 h, blood stage).
With O=c1cc[s+]([O-])c2ccc(Cl)cc12 (single isomer, unassigned; (+)) the EC50 was 157000 nM (parasite growth; 3D7; 72 h, blood stage).
With Cc1ccc(NCC(=O)Nc2ccc(F)c(Cl)c2)cc1S(=O)(=O)N1CC2CCC(C1)O2 the EC50 was 760 nM (parasite growth; 3D7; blood stage).
The EC50 of COC[C@H](NC(=O)[C@H](CCc1ccccc1)NC(=O)CN1CCOCC1)C(=O)N[C@H](/C=C/S(C)(=O)=O)CC(C)C is reported as 22 ± 5 nM (flow cytometry YOYO-1; W2 ring stage; 72 h no washout).
With CC1CCN(Cc2cc(/C=C/C(=O)c3ccc(F)cc3)ccc2O)CC1 the EC50 was 5970 nM (parasite growth; 3D7; 72 h, blood stage).
Cc1ccc(CNC(=O)[C@@H](NC(=O)[C@H](CCc2ccccc2)NC(=O)[C@H](CCc2ccccc2)N(C)Cc2cnccn2)C(C)C)cc1 gave an EC50 of 104 nM (parasite growth; D10; 72 h, blood stage).

Some of these lines once more:
With CC1CCN(Cc2cc(/C=C/C(=O)c3ccc(F)cc3)ccc2O)CC1 the EC50 was 5970 nM (parasite growth; 3D7; 72 h, blood stage).
Cc1ccc(CNC(=O)[C@@H](NC(=O)[C@H](CCc2ccccc2)NC(=O)[C@H](CCc2ccccc2)N(C)Cc2cnccn2)C(C)C)cc1 gave an EC50 of 104 nM (parasite growth; D10; 72 h, blood stage).
